Measurements from different studies.
Compare with care: the assays were run in different laboratories. ± gives the spread as reported. Converted amounts (≈) assume the structure as drawn.

Structure (SMILES) | test | system | setting | scale | measurement | value
CC[C@H](C)[C@@H]1NC(=O)[C@@H](NC(=O)CNC(=O)c2ccc(F)cc2)CSSC[C@@H]2NC(=O)[C@H](C)NC(=O)CNC(=O)[C@@H]3CCCN3C(=O)[C@@H]3CSSC[C@@H](C(=O)NCC(=O)O)NC(=O)[C@H](Cc4ccc(O)cc4)NC(=O)CNC(=O)[C@H](CC(N)=O)NC(=O)CNC(=O)[C@H](CCCNC(=N)N)NC(=O)[C@H](CSSC[C@H](NC(=O)[C@H](CCCNC(=N)N)NC(=O)[C@H](Cc4ccccc4)NC(=O)[C@H](CC(C)C)NC(=O)[C@H](CC(C)C)NC(=O)[C@H]([C@@H](C)O)NC(=O)CNC(=O)[C@H](CC(C)C)NC(=O)[C@H](CC(=O)O)NC(=O)[C@H]([C@@H](C)O)NC(=O)[C@H](CCCNC(=N)N)NC(=O)[C@H](CCSC)NC(=O)[C@H](CC(N)=O)NC(=O)[C@H](CC(C)C)NC1=O)C(=O)N[C@@H](CCCNC(=N)N)C(=O)N[C@@H](CCCNC(=N)N)C(=O)N[C@@H](CC(=O)O)C(=O)N[C@@H](CO)C(=O)N[C@@H](CC(=O)O)C(=O)N3)NC(=O)[C@H]([C@@H](C)CC)NC2=O [fluorine-18 labelled] | PET | nude mouse, BXPC-3 xenograft | intravenous, 0.5 h |  | tumour uptake | 2.3 ± 0.6 %ID/g
CC[C@H]1c2cc3[nH]c4c(c3C)C(=O)[C@H](C(=O)OC)c4c3nc(cc4[nH]c(cc(n2)[C@@H]1C)c(C(C)=O)c4C)[C@@H](C)[C@@H]3CCC(=O)NCC(=O)N[C@H](CC(=O)O)C(=O)N[C@H](CCC(=O)O)C(=O)N[C@@H](C(=O)N[C@H](CC(=O)O)C(=O)NCC(=O)N[C@H](CO)C(=O)NCC(=O)N[C@H](CCCCNC(=O)CC[C@H](NC(=O)c1ccc(NCc2cnc3nc(N)[nH]c(=O)c3n2)cc1)C(=O)O)C(N)=O)C(C)C |  | nude mouse KB xenograft | intravenous, 25 nmol, folate receptor dependent | relative to: HT-1080 xenograft | tumour fluorescence | increased
CC(C)C[C@H](NC(=O)[C@H](C)NC(=O)CNC(=O)[C@H](CO)NC(=O)CNC(=O)[C@H](CCCNC(=N)N)NC(=O)[C@H](CCCNC(=N)N)NC(=O)[C@H](CCCNC(=N)N)NC(=O)[C@H](CCC(N)=O)NC(=O)[C@H](CCCNC(=N)N)NC(=O)[C@H](CCCNC(=N)N)NC(=O)[C@H](CCCCN)NC(=O)[C@H](CCCCN)NC(=O)[C@H](CCCNC(=N)N)NC(=O)CNC(=O)[C@@H](N)Cc1ccc(O)cc1)C(=O)N[C@@H](CO)C(=O)N[C@H](C(=O)N[C@@H](CCC(=O)O)C(=O)N[C@@H](CCCNC(=N)N)C(=O)O)[C@@H](C)O |  | isolated rat heart | concentration not given, ischemia/reperfusion |  | ALDH2 phosphorylation | no effect
CC1=C(C(=O)Nc2ccc(F)cc2)C(c2ccccc2Br)NC(=S)N1 (centres unmarked) | contraction, calcium channel antagonist | isolated rat ileum | with: K+ 80 mM |  | IC50 | 22.6 ± 2.39 µg/mL (≈ 53.7 µM)
CC1(C)SSC(C)(C)[C@@H](NC(=O)[C@@H](N)Cc2ccc(O)cc2)C(=O)NCC(=O)N[C@@H](Cc2ccccc2)C(=O)N[C@H]1C(=O)O | analgesia, radiant heat tail flick | CD1 mouse | intracerebroventricular, 15 min |  | ED50 | 0.4 µg
CC(C)C[C@H](NC(=O)[C@H](CC(N)=O)NC(=O)[C@@H](NC(=O)[C@H](Cc1ccccc1)NC(=O)[C@H](CC(C)C)NC(=O)[C@@H]1CCCN1C(=O)[C@H](C)NC(=O)[C@@H](N)Cc1ccccc1)[C@@H](C)O)C(=O)O |  | C57BL/6 mouse, HSV-1 infected, trigeminal ganglion | dose not given, 8 dpi | relative to: all HSV epitopes | share of HSV-specific CD8 response | 4.6%
C[C@@H](NC(=O)[C@@H](CCC(N)=O)NC(=O)[C@@H](C)NC(=O)[C@@H](CCCCN)NC(=O)[C@@H](CCC(N)=O)NC(=O)[C@@H](C)NC(=O)[C@@H](CCCCN)NC(=O)[C@@H](CCC(N)=O)NC(=O)[C@@H](C)NC(=O)[C@@H](CCC(N)=O)NC(=O)[C@@H](CCCCN)NC(=O)[C@@H](C)NC(=O)[C@@H](CCC(N)=O)NC(=O)[C@@H](CCCCN)NC(=O)[C@@H](C)NC(=O)[C@@H](CCC(N)=O)NC(=O)[C@@H](C)NC(=O)[C@@H](CCCCN)NC(=O)[C@@H](CCC(N)=O)NC(=O)[C@@H](C)NC(=O)[C@@H](CCCCN)NC(=O)[C@@H](CO)NC(=O)[C@@H](Cc1ccc(O)cc1)NC(=O)CNC(=O)CNC(=O)CN)C(=O)N[C@H](CCCCN)C(=O)N[C@H](CCC(N)=O)C(=O)N[C@H](C)C(=O)N[C@H](CCCCN)C(=O)N[C@H](CCC(N)=O)C(=O)O |  | rVλ6Wil fibrils | 1 h, room temperature, 0.05% Tween-20 | relative to: 1 M NaCl over PBS | binding ratio | 0.3
CC[C@H](C)[C@H](NC(=O)[C@@H](NC(=O)[C@H](CC(=O)O)NC(C)=O)[C@@H](C)O)C(=O)N[C@@H](CCCNC(=N)N)C(=O)N[C@@H](CC(C)C)C(=O)N[C@@H](CC(C)C)C(=O)N[C@@H](Cc1ccccc1)C(=O)N[C@@H](CCC(N)=O)C(=O)N[C@@H](CC(C)C)C(=O)N[C@@H](CCSC)C(=O)N[C@@H](CCCNC(=N)N)C(=O)N1CCC[C@H]1C(=O)N1CCC[C@H]1C(=O)N[C@@H](CC(N)=O)C(=O)N[C@@H](CCSC)C(=O)N[C@H](C(=O)N1CCC[C@H]1C(=O)N[C@@H](C)C(=O)N[C@H](C(=O)N[C@@H](CC(N)=O)C(=O)N[C@@H](C)C(N)=O)C(C)C)[C@@H](C)O | item: HA-29 tetramer | antigen-experienced tetramer+ CD4 T cells, healthy adults, HLA-DRB1*0101 | dose not given |  | α4β7+ CCR9+ cells | 14.3%
CC[C@H](C)[C@H](NC(=O)[C@H](Cc1ccc(O)cc1)NC(=O)[C@@H]1CCCN1C(=O)[C@H](CCCNC(=N)N)NC(=O)[C@H](CCCNC(=N)N)NC(=O)[C@@H](NC(=O)[C@H](CCCCN)NC(=O)[C@H](CC(N)=O)NC(=O)[C@H](CCC(=O)O)NC(=O)[C@H](Cc1ccc(O)cc1)NC(=O)[C@H](CC(C)C)NC(=O)[C@@H]1CCC(=O)N1)[C@@H](C)O[C@H]1O[C@H](CO)[C@H](O)[C@H](O[C@@H]2O[C@H](CO)[C@H](O)[C@H](O)[C@H]2O)[C@H]1NC(C)=O)C(=O)N[C@@H](CC(C)C)C(=O)O | 6 Hz seizure test | CF-1 mouse | intracerebroventricular, 30 min, 32 mA corneal stimulation |  | ED50 | 0.0004 nmol
O=C(O)/C=C/c1ccc(O)cc1 |  |  | 62.5 µg/mL |  | DPPH radical scavenging | 51.8 ± 1.2%
CC[C@H](C)[C@H](NC(=O)[C@H](Cc1ccc(O)cc1)NC(=O)[C@H](CCCCN)NC(=O)[C@H](CCCCN)NC(=O)[C@H](CCC(N)=O)NC(=O)[C@H](C)N)C(=O)N[C@@H](CO)C(=O)N[C@@H](Cc1ccc(O)cc1)C(=O)NCC(=O)N[C@@H](C)C(=O)N[C@@H](CCSC)C(=O)N[C@@H](CCCNC(=N)N)C(=O)N[C@@H](CCCNC(=N)N)C(=O)N[C@@H](CC(N)=O)C(=O)N[C@@H](CO)C(=O)N[C@H](C(=O)N1CCC[C@H]1C(=O)N[C@H]1CSSC[C@@H](C(=O)N[C@@H](CCC(N)=O)C(=O)N[C@@H](CCCNC(=N)N)C(=O)NCC(=O)N[C@@H](C)C(=O)N[C@@H](CCC(N)=O)C(=O)N[C@@H](C)C(=O)N[C@@H](CC(N)=O)C(=O)N2CCC[C@H]2C(=O)N[C@@H](Cc2ccc(O)cc2)C(=O)N[C@@H](CO)C(=O)N[C@@H](CCCNC(=N)N)C(=O)NCC(=O)N[C@H]2CSSC[C@@H](C(=O)N[C@@H](CCCNC(=N)N)C(=O)N[C@@H](CCCNC(=N)N)C(=O)O)NC(=O)[C@H](CCCNC(=N)N)NC(=O)[C@H]([C@@H](C)O)NC(=O)[C@H]([C@@H](C)CC)NC(=O)[C@H]([C@@H](C)O)NC(=O)[C@H](CO)NC2=O)NC(=O)[C@H](CC(N)=O)NC(=O)[C@H](Cc2ccc(O)cc2)NC(=O)[C@H](Cc2ccc(O)cc2)NC(=O)[C@H](CO)NC(=O)[C@H](C)NC(=O)CNC(=O)[C@H](CCCNC(=N)N)NC(=O)[C@H](CCCNC(=N)N)NC(=O)[C@H](CO)NC1=O)C(C)C | FITC/TRITC dextran ratio | Arabidopsis thaliana Col-0, root hairs | 5 µM |  | extracellular pH increase | 0.84 pH units
CC(C)[C@H](N)C(=O)N[C@@H](Cc1ccc(O)cc1)C(=O)N[C@@H](CCCCN)C(=O)N[C@H](C(=O)N[C@@H](CCCCN)C(=O)N[C@H](C(=O)N[C@@H](CCCCN)C(=O)N[C@H](C(=O)N[C@@H](CCCCN)C(=O)N[C@H](C(=O)N[C@@H](CCCCN)C(=O)N[C@H](C(=O)N[C@@H](CCCCN)C(=O)N[C@H](C(=O)N[C@@H](CCCCN)C(=O)N[C@H](C(=O)N[C@@H](CCCCN)C(=O)N[C@H](C(=O)O)[C@@H](C)O)C(C)C)[C@@H](C)O)C(C)C)[C@@H](C)O)C(C)C)[C@@H](C)O)C(C)C |  | human IAPP fibrils | 1 h, room temperature | relative to: 1 M NaCl over PBS | binding ratio | 0.2
CC(C)C[C@@H]1NC(=O)[C@H](C(C)C)NC(=O)[C@H](CO)NC(=O)CNC(=O)CNC(=O)[C@H](CCCNC(=N)N)NC(=O)[C@@H]2CCCN2C(=O)[C@@H](NC(=O)CC[C@H](NC(=O)c2ccc(N(C)Cc3cnc4nc(N)nc(N)c4n3)cc2)C(=O)O)C(C)(C)SSC[C@@H](C(=O)O)NC(=O)CNC(=O)[C@H]([C@@H](C)O)NC(=O)[C@H](C(C)C)NC1=O |  | rat adjuvant arthritis | iv, 5 mg/kg once daily, day 14 |  | liver weight | 4.86 ± 0.205 g
CC(=O)N[C@@H](Cc1c[nH]c2ccccc12)C(=O)NCC(=O)N[C@@H](C)C(=O)N[C@H]1CSCC(=O)Nc2ccc(cc2)N=Nc2ccc(c(S(=O)(=O)O)c2)-c2ccc(cc2S(=O)(=O)O)N=Nc2ccc(cc2)NC(=O)CSC[C@@H](C(=O)N[C@@H](C)C(=O)N[C@@H](CCC(N)=O)C(N)=O)NC(=O)[C@H](CCCNC(=N)N)NC(=O)[C@H](C)NC(=O)[C@H](C)NC(=O)[C@H](C)NC(=O)[C@H](CCC(=O)O)NC(=O)[C@H](CCCNC(=N)N)NC(=O)[C@H](C)NC(=O)[C@H](C)NC(=O)[C@H](C)NC(=O)[C@H](CCC(=O)O)NC(=O)[C@H](CCCNC(=N)N)NC(=O)[C@H](C)NC(=O)[C@H](C)NC(=O)[C@H](C)NC(=O)[C@H](CCC(=O)O)NC(=O)[C@H](CCCNC(=N)N)NC(=O)[C@H](C)NC(=O)[C@H](C)NC(=O)[C@H](C)NC(=O)[C@H](CCC(=O)O)NC1=O | cis-to-trans reversion, UV-Vis absorbance | 10 mM phosphate buffer | pH 7.0, 37 °C, with: 365 nm irradiation |  | thermal relaxation half-life | 4.9 ± 0.2 min

For quick reference, copied from above:
Structure (SMILES) | test | system | setting | scale | measurement | value
C[C@@H](NC(=O)[C@@H](CCC(N)=O)NC(=O)[C@@H](C)NC(=O)[C@@H](CCCCN)NC(=O)[C@@H](CCC(N)=O)NC(=O)[C@@H](C)NC(=O)[C@@H](CCCCN)NC(=O)[C@@H](CCC(N)=O)NC(=O)[C@@H](C)NC(=O)[C@@H](CCC(N)=O)NC(=O)[C@@H](CCCCN)NC(=O)[C@@H](C)NC(=O)[C@@H](CCC(N)=O)NC(=O)[C@@H](CCCCN)NC(=O)[C@@H](C)NC(=O)[C@@H](CCC(N)=O)NC(=O)[C@@H](C)NC(=O)[C@@H](CCCCN)NC(=O)[C@@H](CCC(N)=O)NC(=O)[C@@H](C)NC(=O)[C@@H](CCCCN)NC(=O)[C@@H](CO)NC(=O)[C@@H](Cc1ccc(O)cc1)NC(=O)CNC(=O)CNC(=O)CN)C(=O)N[C@H](CCCCN)C(=O)N[C@H](CCC(N)=O)C(=O)N[C@H](C)C(=O)N[C@H](CCCCN)C(=O)N[C@H](CCC(N)=O)C(=O)O |  | rVλ6Wil fibrils | 1 h, room temperature, 0.05% Tween-20 | relative to: 1 M NaCl over PBS | binding ratio | 0.3
CC[C@H](C)[C@H](NC(=O)[C@@H](NC(=O)[C@H](CC(=O)O)NC(C)=O)[C@@H](C)O)C(=O)N[C@@H](CCCNC(=N)N)C(=O)N[C@@H](CC(C)C)C(=O)N[C@@H](CC(C)C)C(=O)N[C@@H](Cc1ccccc1)C(=O)N[C@@H](CCC(N)=O)C(=O)N[C@@H](CC(C)C)C(=O)N[C@@H](CCSC)C(=O)N[C@@H](CCCNC(=N)N)C(=O)N1CCC[C@H]1C(=O)N1CCC[C@H]1C(=O)N[C@@H](CC(N)=O)C(=O)N[C@@H](CCSC)C(=O)N[C@H](C(=O)N1CCC[C@H]1C(=O)N[C@@H](C)C(=O)N[C@H](C(=O)N[C@@H](CC(N)=O)C(=O)N[C@@H](C)C(N)=O)C(C)C)[C@@H](C)O | item: HA-29 tetramer | antigen-experienced tetramer+ CD4 T cells, healthy adults, HLA-DRB1*0101 | dose not given |  | α4β7+ CCR9+ cells | 14.3%
